Published values gathered from unrelated publications.
Numbered parts are unrelated; each lists some results of a single study. Changes are numbered by the printed parent chain.

Set 1
Target: CEP164, C-terminal peptide (human)
Technique: DHFR complementation, deep sequencing
Matrix: yeast
Notes: single substitutions, model-inferred values
Relative to: wild type
Direction: higher = weaker binding
Endpoint: binding free energy change
Starting sequence: PDZK1, PDZ domain 2 (human); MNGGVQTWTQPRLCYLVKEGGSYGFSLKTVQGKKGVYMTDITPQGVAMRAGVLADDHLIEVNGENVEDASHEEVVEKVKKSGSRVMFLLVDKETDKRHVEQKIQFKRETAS; partner HNRVKVYRF
Y37M: 0.356 kcal/mol
K96V: -0.0245 kcal/mol
N2K: -0.0557 kcal/mol
E72N: 0.714 kcal/mol
L89C: 0.241 kcal/mol
N65S: 0.182 kcal/mol
Q101W: -0.121 kcal/mol
V74Y: 0.81 kcal/mol

Set 2
Target: Hepatocyte nuclear factor 3-alpha (Foxa1, Mus musculus, UniProt P35582, residues 1-468, full length assumed)
Technique: EMSA with sequencing
Form: double-stranded DNA, one strand shown
Matrix: in vitro
Concentration: 10 and 20 nM
Notes: whole designed probe, mean of two concentrations, ends assumed
Relative to: negative control set to 0
Direction: higher = stronger binding
Endpoint: normalised bound fraction
Constant ends, left off below: GTGAGCGGTGCCCATTGATGGGGAAC … TTTCACTGGGATCGTGGGGAC
Target sequence (chain): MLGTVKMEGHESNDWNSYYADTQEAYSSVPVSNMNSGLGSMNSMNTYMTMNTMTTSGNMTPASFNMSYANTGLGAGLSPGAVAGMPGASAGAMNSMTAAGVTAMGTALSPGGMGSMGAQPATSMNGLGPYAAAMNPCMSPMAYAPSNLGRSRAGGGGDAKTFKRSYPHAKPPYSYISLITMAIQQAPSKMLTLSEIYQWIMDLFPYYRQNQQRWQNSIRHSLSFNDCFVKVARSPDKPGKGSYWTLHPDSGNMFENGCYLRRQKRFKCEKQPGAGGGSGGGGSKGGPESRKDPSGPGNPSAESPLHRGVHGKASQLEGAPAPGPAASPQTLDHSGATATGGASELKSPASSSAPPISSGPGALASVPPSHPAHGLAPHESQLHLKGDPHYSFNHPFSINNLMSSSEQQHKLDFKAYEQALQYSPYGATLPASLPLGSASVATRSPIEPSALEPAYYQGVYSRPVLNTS
GCACTAAAAATATGTTTTTTTAAAAAATCTCCAGGGCCACTCCTAGGGTGTGCAGTGCCCTGCAAAGATAGTTTTTGTAGGGTACTTGCCTATGTAATCTACACAATTTTAGAATTCATTCCAAAACTTACAGGTCTGTGTGAGGTATAGTGATTAATGGATAGAGAAGAGATGCTTACACATTTGTTTATTG: 0.0467 ratio
ATCACAATTGTATATAAACAATGTTTTGAATTAAAGAAGTAATGTATTTGCAGAAATTGCTTCCCTATTGTACCACATGATTCTTATTCAAAGTAATCTCCAATAGTATACAGTGTTATAATGACTAAAAACAAACAAATGCCATTTTATATCATAGGATGTAATTTTATTTAAGTAGTAAAGAACTAATTTC: 0.47 ratio
ATCTTCCCCCTCTTCCTTGCCCCACCAGCTCACCTTCCCGGGTTATTTGCAGATAGGAAAATAAATAAAGCCGGCATTCGTTAACCCTCTTCTGGCGCAAACTGCTGTTTGCTCTGGTCCTTTGGCGAGATGAATCATGCGCCAGGCTCCGGGAGAGCAAAGCACCGTGTCAGGGCCATGATCCGGGGTGGCC: 0.385 ratio
GGACACAGCCAGAGGCCATGAGTGCTCAGGAGTGCCATAAACTGTGATTTTGAGACTGATAAGGCCAGGCTAAATAGCTTGCTGGGTGTGTCTTGTTTGCCTTTTTATATTTGAGGCCTATAAAAAAATAGTGAGAAAATAGCAAGATGCCCAGGAGACAGGTGATCTGATTCAGCCAGGGGGTGGGAGGTGG: 0.085 ratio
TCTAAAATTTGGGGGGAAATTCTTGTTTTACACTGAAGCATAGAAATGACTCACATGGTTATACATTTTTCAAGAGCAATGCCCATGAATGAGTAAACAAGGAAGCATCTTCCTTGACAGCAACATCAGGGAAAGTCAGTCTTACTGATTAGTCTAGTGCAAGAGGTCACTGTCAAATTATATGCACACTCAT: 0.244 ratio

Set 3
Target: RNA binding protein fox-1 homolog 2, RRM domain, GST-SBP tag (RBFOX2, Homo sapiens, UniProt O43251-10, residues 100-194)
Technique: RNA Bind-n-Seq
Form: RNA
Matrix: in vitro
Concentration: 365 nM
Notes: natural RNA segment, single round, ends assumed
Relative to: no-protein control
Direction: higher = stronger binding
Endpoint: RBNS enrichment (R)
Constant ends, left off below: GGGAGUUCUACAGUCCGACGAUC … UGGAAUUCUCGGGUGCCAA
Target sequence (chain): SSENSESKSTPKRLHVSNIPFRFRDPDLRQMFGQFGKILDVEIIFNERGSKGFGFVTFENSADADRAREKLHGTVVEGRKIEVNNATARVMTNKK
AAUGAAAGCAGGCAAAAGUGCUGUCAUUGUGAUACCGUCCCACUCAGAUGUCUAACGGGAGCUUGCUUAAGGGGAAUGUUAGCAUUGCCAAGUGCGAUGGUGUUGCCUUU: 0.255
UGCCCCCGAUAGCAUAGUGUGUGCCAACCGGUACACCUGACUCAGCAUUAGGAUCCUAUAACCAUGCCUGUCCCUGCUCUGUGUUUUAGGGAAGUGACAUAAAGUGAGGU: 0.29
AACCUAAUAAGUAACUGUGAGAUGUACAGAAAGGUGUUCUUACAUGAAGAAGGGUGUGAAGGCUGAACAAUCAUGGAUUUUUCUGAUCAAUUGUGCUUUAGGAAAUUAUU: 0.705
GUUCCCCACCCCUCACAGACUGCCUGAGCUCUUCUGUAAGCUGGGGUAGGGUGAUGGCAGUGCUCCGGGAACUGGGCCUGCAGCCUUCCUCUUCUGGGACUGCUGUGAGG: 0.236
UCCGUUCGGCUUUUGCUUUGCGUUAGGGUGAAGACCCUAGCGUCCAGCUCCCCUCAACGCUAUAUUUUGACACUAAAAAAGAAGGUUUCUAAAUUGUAGGAGCAGGAUGG: 0.243
GCAGAGGAGUGUCUGCAGGGAAACAGCUUCUCCUCUGCCCCGAUGGAUGCUUUAUUUGGAUGGCCUGGCAACAUCACAUUUUCUGCAUCACCCUGAGCCCCAUUUGCUUC: 1.61
GCAAAACCAGGUGUUGCUUUGCUAUGUUCCUGUACACUGUGGGAGAGGUAAUAGCAUCUGUGGGACACAGCAGAAUUGUACAAGUGUACAAUUAGUGUGUAGCAGAGCAC: 0.491
ACCUGGUUCCUGCUAACUGCCAGAUUGAAUGUGUGGGCUAGAAUGCCUGCACAUUUAGUUAAACUGGGCUCAGCAUGCUUGUCCUCAAAAUGUCCAUCCUGGUCACAGCA: 1.74

Single results of other studies
P1: viral docking peptide; CKVKRKLFGSENI; partner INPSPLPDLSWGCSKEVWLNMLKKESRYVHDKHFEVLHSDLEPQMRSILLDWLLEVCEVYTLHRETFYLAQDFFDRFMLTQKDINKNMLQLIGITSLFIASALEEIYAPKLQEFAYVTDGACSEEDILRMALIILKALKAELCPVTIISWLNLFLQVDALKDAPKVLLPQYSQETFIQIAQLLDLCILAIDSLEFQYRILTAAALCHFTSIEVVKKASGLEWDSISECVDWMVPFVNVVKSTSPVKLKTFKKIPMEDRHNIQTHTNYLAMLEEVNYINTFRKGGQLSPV
P1 K6A
normalised enrichment score (CCNE2, cyclin fold, Cln2 fusion (human); yeast growth competition, sequencing; yeast; strong parent motif; relative to: not given, higher = stronger binding): 1.96

PhoQ, residues 284 288 289 292 302 303 GNNTDL
fold induction (PhoP, residues 12 14 15 18 19 NHFRA (Escherichia coli, UniProt P23836); Sort-seq, refers to: YFP reporter; E. coli; PhoQ-PhoP variant library, with: 10 µM Mg2+; relative to: high Mg2+ state, higher = stronger signaling): 1.63
